{"data": "Assay results pooled from the literature", "technique": "steady-state kinetics", "B1": "enzyme (Klebsiella pasteurii, UniProt A0A9Q9S525); chain MSDAKAKITLGGDTAIELDVLKGTLGQDVIDIRSLGSKGVFTFDPGFTSTASCESKITFIDGDEGILLHRGFPIDQLATDSNYLEVCYILLNGEKPTQAQYDEFKTIVTRHTMIHEQITRLFHAFRRDSHPMAVMCGITGALAAFYHDSLDVNNPRHRDIAAFRLLSKMPTMAAMCYKYSIGQPFVYPRNDLSYAGNFLNMMFSTPCEKYEVNPILERAMDRILILHADHEQNASTSTVRTAGSSGANPFACIAAGIASLWGPAHGGANEAALKMLEEISSVEHIPEFVRRAKDKNDSFRLMGFGHRVYKNYDPRATVMRETCHEVLKELGTKDDLLEVAMELEHIALNDPYFIEKKLYPNVDFYSGIILKAMGIPSSMFTVIFAMARTVGWIAHWNEMHSDGMKIARPRQLYTGYEKRDFKNDIAR", "B2": "enzyme (Chlamydomonas reinhardtii, UniProt A0A2K3D977); chain ASDSVLAVWRKADAVCFDVDCTITVNDSLDLLAEFMGVKEQVEILTNKAMDGSLSLEQALEERLNIINCSPDDIKRFIKAHPPASRMAPGIKELINSLQARGKAIYLISGGFRELTLPIAAYLGIPKENVFANRMNWQWDDETGMPTKLVGFDMSEPTAHNQGKPQAIARIRQRNPYNTVVMIGDGITDLEAVQTTGGADLFIGSGVVVERPAVAREADWYVYDYTDLLRTMARYSVAMVGSGAWACAAVRMIAQNTQVDDAADEFVDEVRMWVYEEDFEGKKLTEVINQTHTNPKYFPGFDLGPNVVAVPNIVDAVADADLIVFCAPHQFLHHICKQLVGKIKPGAAAISLTKGMRVRPEGPQLISQMVRRLLGIDCCVLMGANIATDIGREQLSEAVIGYDNLDAATLFQKIFQRPYFRVNLLPDPVGAEMCGTLKNIVALGAGMVDGLGLGPNSKAAIIRQGLVEMRAFSKALYPSVRDDTFMESCGVGDLVATCYGGRNRLVACEWTKAQMEGKPRTFEDLETDLLKGQKLQGVLTSNEVQEILKVRGWESQYPLFTTVNRIINGYLPPKYVVEFVAGAKYHIRRPGTDDEEIVPVRPKRPAAAGGVATAPILAA", "B3": "aspC A106G/A17N/A218G/A278L/A281T/A8Q/D18E/F210I/F212I/F350Y/G15S/G249S/I187A/I279A/I29V/I33V/I341V/I5L/I68L/I71L/L46M/M321L/M380L/N285S/N30D/N64T/S129T/S135A/S273G/S351L/T100S/V125I/V136I/V375I/Y244C (Escherichia coli, UniProt P00509); chain MFENLTAQPADPILSLNELFRADERPGKVDLGVGVYKDETGKTPVMTSVKKAEQYLLENETTKTYLGLDGLPEFGRCTQELLFGKGSALINDKRARTAQSPGGTGGLRVAADFLAKNTSVKRVWISNPTWPNHKAIFNSAGLEVREYAYYDAENHTLDFDALINSLNEAQAGDVVLFHGCCHNPTGADPTLEQWQTLAQLSVEKGWLPLIDIAYQGFGRGLEEDAEGLRAFAAMHKELIVASSCSKNFSLYNERVGACTLVAADSETVDRAFGQMKALARTNYSSPPAHGASVVATILSNDALRAIWEQELTDMRQRIQRLRQLFVNTLQEKGANRDFSFVIKQNGMFSYLGLTKEQVLRLREEFGVYAVASGRINVAGLTPDNMAPLCEAIVAVL", "B4": "enzyme (UniProt Q83XK4); chain MATRIAILGAGPSGMAQLRAFQSAQEKGAEIPELVCFEKQADWGGQWNYTWRTGLDENGEPVHSSMYRYLWSNGPKECLEFADYTFDEHFGKPIASYPPREVLWDYIKGRVEKAGVRKYIRFNTAVRHVEFNEDSQTFTVTVQDHTTDTIYSEEFDYVVCCTGHFSTPYVPEFEGFEKFGGRILHAHDFRDALEFKDKTVLLVGSSYSAEDIGSQCYKYGAKKLISCYRTAPMGYKWPENWDERPNLVRVDTENAYFADGSSEKVDAIILCTGYIHHFPFLNDDLRLVTNNRLWPLNLYKGVVWEDNPKFFYIGMQDQWYSFNMFDAQAWYARDVIMGRLPLPSKEEMKADSMAWREKELTLVTAEEMYTYQGDYIQNLIDMTDYPSFDIPATNKTFLEWKHHKKENIMTFRDHSYRSLMTGTMAPKHHTPWIDALDDSLEAYLSDKSEIPVAKEA", "B5": "enzyme S252E (Schizosaccharomyces pombe, UniProt P78804); chain MSTPYEPEFQQAYKEIVGSIESSKLFEVHPELKRVLPIISIPERVLEFRVTWEDDKGNCRVNTGYRVQFNSALGPYKGGLRFHPSVNLSILKFLGFEQIFKNALTGLPMGGGKGGSDFDPKGKSDNEIRRFSQAFMRQLFRYIGPQTDVPAGDIGVTGFVVMHMFGEYKRLRNEYSGVVTGKHMLTGGSNIRPEATGYGVVYYVKHMIEHRTKGAETLKGKRVAISGSGNVAQYAALKCIQEGAIVKSISDEKGVLIAKTAEGLVPEEIHEIMALKEKRASIADSASLCKKHHYIAGARPWTNVGEIDIALPCATQNEVSGEEAAALIKQGCRYVAEGSNMGSSAEAVEVFEKSRASGEGCWLAPGKAANAGGVAVSGLEMAQNAQFSTWTHAEVDAKLAGIMQNIFEQSTDVASKYCDSGSNNIPSLVDGANIAGFLKVATAMQAVGDWW", "B6": "enzyme (Azotobacter vinelandii, UniProt C1DN94); chain MSESPLRLDRLRDFVSALGELLDRHPDEESVLREGRSLLGELVRHDDWLPEEFAQPDPERYQQYLLHADSRQRFSVVSFVWGPGQTTPVHDHRVWGLIGMLRGAEDAQSFELGAEGLRPIGDPVRLSPGQVEAVSPRIGDIHRVFNASPDQPSISIHVYGANIGAVRRAVYLPDGSEKPFISGYSNQFLPNIWDQSKESARP", "B7": "SCO6712 S292F/V290N (Streptomyces coelicolor, UniProt Q9XAL8); chain AKGITARTAPAGGEVRHLKMYAEKLADGQMGYGFEKGKASVPGPLIEVNEGDTLHIEFTNTMDVRASLHVHGLDYEISSDGTAMNKSDVEPGGTRTYTWRTHKPGRRDDGTWRPGSAGYWHYHDHVVGTEHGTGGIRNGLYGPVIVRRKGDVLPDATHTIVFNDMTINNRKPHTGPDFEATVGDRVEIVMITHGEYYHTFHMHGHRWADNRTGILTGPDDPSRVIDNKITGPADSFGFQIIAGEGVGAGAWMYHCHNQFHSDMGMVGLFLVKKPDGTIPGYEPHEHGGATAKSGESGEPTGGAAAHEHEH", "B8": "enzyme C429A (Methanosarcina mazei, UniProt Q8PVB1); chain MSEQRSVPLREHLLALKPCRHGGLIQETSETYGIPENEILDFSANFNPLGSPFDYPENGLNFEDIIKKSCGKLLEYPDNRYVEFREAAARFVGLGVTPQSIVPGNGSTEIVRLVVESVIEKGDKVLLPWPTFGEYEMQCRITGAEPVCPSQEEVNTLPDEVLEEAKILFICNPNNPTGKLRTREELKVLAERCREHKTLLYVDEAFIELSDPSQSVADLPAENNYVFVMRSLTKDFAIPGIRMGFGIAPPAMADILNTARLSWNLGAIANNTGIALLNIEGGIDSPYLKKAREMILKEGETLKAKIDRIRGFEAGEVNVNFILVDVSKFMLNSSELTARLAARGVLVRDCVSFHGLGKNYIRVAVRTEKENDRLIAAIGDVITEWGREQAKNELQHVIEKASEEGIGGRKTCEYYPCHFEGQNCTFCFAPFYPCENEKTGGKWIQSSRGGRVWSCVDCHLVHKKEIAQKILDCLMHEGDTDELVKVAWKEVMEPIL", "B9": "enzyme (Lactiplantibacillus plantarum, UniProt Q06115); chain CTAITYQSYNNYFGRNFDYEISYNEMVTITPRKYPLVFRKVENLDHHYAIIGITADVESYPLYYDAMNEKGLCIAGLNFAGYADYKKYDADKVNITPFELIPWLLGQFSSVREVKKNIQKLNLVNINFSEQLPLSPLHWLVADKQESIVIESVKEGLKIYDNPVGVLTNNPNFDYQLFNLNNYRALSNSTPQNSFSEKVDLDSYSRGMGGLGLPGDLSSMSRFVRAAFTKLNSLSMQTESGSVSQFFHILGSVEQQKGLCEVTDGKYEYTIYSSCCDMDKGVYYYRTYDNSQINSVSLNHEHLDTTELISYPLRSEAQYYAVN", "B10": "enzyme (Cyanidioschyzon merolae, UniProt M1V8C6); chain EPPRDTAATSSHEFTHHVTEKAKDWSGSGTWLQSYIEQGPLAAAIPPQYAPSRSLSRWQAWGSYLFKELGLDGTLERDQNRIFRFYLPVFAWSLHVVNRLQRDERRKQHGVIIGLQCPQGGGKTTLTAALQKLFDLEQRRCVSLSIDDFYLTRREQEALARAFPENPLLGSRGNPGTHDISLALQVLNEVVAAPYPGEHAEVAVPRYDKSAFQGLGDRAPPEQWPLVSRPVDVVFLEGWCLGFRPLALHERPATMDPITLRHLMQVDRFLAEDFSRLYPLLDAFIVIALDGPKLSESLRIVYQWRLEAEQQMRAAGRPAMTDEQVYAFVDKFMPAYKAYLGDLYGGPPLTGNLSRELRVGIDETRSPTRLNPHSELVP", "note": "Each line is one published result; not all experiments were run side by side. Numbers after ± are the reported error."}
{"Substance": "B1 (enzyme)", "substrate": "O=C(O)CC(=O)C(=O)O", "pH": "pH 7.5", "temperature": "30 °C", "notes": "apparent", "kcat [s⁻¹]": "106 ± 7"}
{"Substance": "B2 (enzyme)", "substrate": "O=C(CO)COP(=O)(O)O", "pH": "pH 7.5", "with": "NADH 500 µM", "kcat [s⁻¹]": "248 ± 36"}
{"Substance": "B3", "substrate": "N[C@@H](Cc1ccc(O)cc1)C(=O)O", "pH": "pH 7.5", "temperature": "25 °C", "with": "PMP 20 µM", "kcat [s⁻¹]": 0.14}
{"Substance": "B4 (enzyme)", "substrate": "NC(=O)C1=CN([C@@H]2O[C@H](COP(=O)(O)OP(=O)(O)OC[C@H]3O[C@@H](n4cnc5c(N)ncnc54)[C@H](O)[C@@H]3O)[C@@H](O)[C@H]2O)C=CC1", "pH": "pH 7", "temperature": "30 °C", "notes": "cofactor varied", "kcat [s⁻¹]": "0.085 ± 0.004"}
{"Substance": "enzyme (Klebsiella pneumoniae, UniProt A6THV5)", "substrate": "CSCC[C@@H](NC(C)=O)C(=O)O", "pH": "pH 8", "temperature": "35 °C", "kcat [s⁻¹]": "1.51 ± 0.0367"}
{"Substance": "B5 (enzyme S252E)", "substrate": "NC(=O)C1=CN([C@@H]2O[C@H](COP(=O)(O)OP(=O)(O)OC[C@H]3O[C@@H](n4cnc5c(N)ncnc54)[C@H](OP(=O)(O)O)[C@@H]3O)[C@@H](O)[C@H]2O)C=CC1", "pH": "pH 7", "temperature": "30 °C", "notes": "apparent", "kcat [s⁻¹]": "46 ± 2"}
{"Substance": "putA (Escherichia coli, UniProt P09546)", "substrate": "O=C(O)[C@@H]1CCCN1", "pH": "pH 7.4", "with": "CoQ1", "kcat [s⁻¹]": "3.3 ± 0.05"}
{"Substance": "B6 (enzyme)", "substrate": "N[C@@H](CS)C(=O)O", "pH": "pH 8", "temperature": "25 °C", "with": "O2", "kcat [s⁻¹]": "1.2 ± 0.1"}
{"Substance": "acsA D449E/I222V (Pseudomonas chlororaphis)", "substrate": "CCCC(=O)O", "pH": "pH 7", "kcat [s⁻¹]": "0.1683 ± 0.00167"}
{"Substance": "enzyme (UniProt P0DY30)", "substrate": "CC(=O)N[C@H]1[C@H](Oc2ccc([N+](=O)[O-])cc2)O[C@H](CO)[C@@H](O[C@@H]2O[C@H](CO)[C@H](O)[C@H](O)[C@H]2O)[C@@H]1O", "pH": "pH 6", "temperature": "50 °C", "kcat [s⁻¹]": "8.9 ± 0.3"}
{"Substance": "enzyme (Arabidopsis thaliana, UniProt Q9FFF6)", "substrate": "CC/C=C\\C[C@@H]1C(=O)CC[C@@H]1CC(=O)O", "pH": "pH 7.5", "temperature": "20 °C", "kcat [s⁻¹]": 0.0093}
{"Substance": "B7 (SCO6712 S292F/V290N)", "substrate": "CCn1c(=NN=c2sc3cc(S(=O)(=O)O)ccc3n2CC)sc2cc(S(=O)(=O)O)ccc21", "pH": "pH 7", "temperature": "37 °C", "notes": "NaCl 150 mM", "with": "O2 cosubstrate", "kcat [s⁻¹]": "1.65 ± 0.05"}
{"Substance": "B8 (enzyme C429A)", "substrate": "Nc1ncnc2c1ncn2[C@@H]1O[C@H](COP(=O)(O)OP(=O)(O)OP(=O)(O)O)[C@@H](O)[C@H]1O", "pH": "pH 8.5", "temperature": "25 °C", "notes": "apparent, anoxic", "with": "L-Thr 10 mM", "kcat [s⁻¹]": "0.18 ± 0.001"}
{"Substance": "enzyme (Mycosarcoma maydis, UniProt A0A0U2UYC4)", "substrate": "O=C(O)/C=C(\\CC(=O)O)C(=O)O", "pH": "pH 5.5", "temperature": "37 °C", "kcat [s⁻¹]": "38.3 ± 4.01"}
{"Substance": "B9 (enzyme)", "substrate": "C[C@H](CCC(=O)N[C@@H](Cc1ccc(O)cc1)C(=O)O)[C@H]1CC[C@H]2[C@@H]3[C@H](O)C[C@@H]4C[C@H](O)CC[C@]4(C)[C@H]3C[C@H](O)[C@]12C", "pH": "pH 6.2", "temperature": "37 °C", "kcat [s⁻¹]": "25.8 ± 1.57"}
{"Substance": "B10 (enzyme)", "substrate": "O=C(O)[C@H](O)CO", "pH": "pH 7.8", "temperature": "30 °C", "kcat [s⁻¹]": "19.4 ± 0.86"}
{"note": "Excerpt of the above:"}
{"Substance": "B5 (enzyme S252E)", "substrate": "NC(=O)C1=CN([C@@H]2O[C@H](COP(=O)(O)OP(=O)(O)OC[C@H]3O[C@@H](n4cnc5c(N)ncnc54)[C@H](OP(=O)(O)O)[C@@H]3O)[C@@H](O)[C@H]2O)C=CC1", "pH": "pH 7", "temperature": "30 °C", "notes": "apparent", "kcat [s⁻¹]": "46 ± 2"}
